Experimental data pooled from the literature.
Compare with care: the assays were run in different laboratories. ± marks the error that the study gave.
Cell line: HT-29

Structure (SMILES)	test	setting	how to read	quantity	value
Oc1cc(O)c2c(c1)OC(c1ccc(O)c(O)c1)C(OC1(c3ccc(O)c(O)c3)Oc3cc(O)cc(O)c3C(O)C1O)C2 (stereo not shown)	agonist, dynamic mass redistribution			maximal DMR response	> 1000 pm
COc1cc(CNC(=O)C[C@H](C)CCC=C(C)C)ccc1OCc1cn(-c2ccccc2Cl)nn1	SRB	10 µM, 48 h		growth percent	76.7%
Cc1cc(Oc2ccc(F)c(NC(=O)Cc3cccc(C(F)(F)F)c3)c2)cc2sc(NC(=O)C3CC3)nc12	necroptosis, CellTiter-Glo	with: TNF, SMAC mimetic and zVAD (TSZ)		EC50	> 10 µM
C#CCN(CC(=O)O[C@H]1[C@H](C)O[C@@H](O[C@H]2[C@H](N(C)C)[C@@H](O)[C@H](O[C@H]3[C@@H](CC=O)C[C@@H](C)[C@@H](O[C@H]4CC[C@H](N(C)C)[C@@H](C)O4)/C=C/C=C/C[C@@H](C)OC(=O)C[C@@H](O)[C@@H]3OC)O[C@@H]2C)C[C@@]1(C)O)C(=O)c1ccc(C(F)(F)F)cc1	cell growth or viability, CCK-8	72 h		IC50	0.71 µM
Cc1cc2nc(NC(=O)C3CC3)sc2cc1Oc1ccc(F)c(NC(=O)Cc2cccc(C(F)(F)F)c2)c1	necroptosis, CellTiter-Glo	with: TNF, SMAC mimetic and zVAD (TSZ)		EC50	0.06 ± 0.007 µM
COc1cc(CNC(=O)C[C@H](C)CCC=C(C)C)ccc1OCc1cn(-c2ccc(F)cc2)nn1	SRB	10 µM, 48 h		growth percent	103%
NCCC(=O)N[C@@H](Cc1c[nH]cn1)C(=O)O	MTT	10 µg/mL, 6 h		viability	27.8%
COc1cc(CNC(=O)C[C@H](C)CCC=C(C)C)ccc1OCc1cn(-c2ccc(Cl)cc2Cl)nn1	SRB	10 µM, 48 h		growth percent	82.3%
CC(=O)OC[C@H]1O[C@@H](Sc2sc(C(=O)c3ccc(Br)cc3)c(N)c2-c2nc3ccccc3s2)[C@H](OC(C)=O)[C@@H](OC(C)=O)[C@H]1OC(C)=O	SRB	10 µM, 48 h	relative to: untreated	growth	99.7%
O=C(Cc1cccc(C(F)(F)F)c1)Nc1cc(Oc2cc(Br)c3nc(NC(=O)C4CC4)sc3c2)ccc1F	necroptosis, CellTiter-Glo	with: TNF, SMAC mimetic and zVAD (TSZ)		EC50	> 10 µM
CCC(=C(c1ccc(Cl)cc1)c1ccc(OCCCN(C)C)cc1)c1ccc(OC)cc1	cell growth or viability, SRB			GI50	1.06 µM
Cc1ccc(C(C)C)cc1.O=C([N-]c1nc2ccccc2[nH]1)c1cnccn1.[Cl-].[Ru+2]	cytotoxicity, MTT		relative to: KMST-6 over HT-29	selectivity index	> 2
O=C(Cc1cccc(C(F)(F)F)c1)Nc1cc(Oc2ccc3nc(NC(=O)C4CC4)sc3c2CO)ccc1F	necroptosis, CellTiter-Glo	with: TNF, SMAC mimetic and zVAD (TSZ)		EC50	0.034 ± 0.001 µM
CC12CCCC(n3cc(C(=O)N4CCCC(N)C4)nn3)(C1)C1CC(C)(C)C1CC2 (stereo not shown)	annexin V/PI flow cytometry	2.5 µM, 48 h		apoptotic cells	11.9%
CC(=O)OC[C@H]1O[C@@H](Sc2sc(C(=O)c3ccc(C)cc3)c(N)c2-c2nc3ccccc3s2)[C@H](OC(C)=O)[C@@H](OC(C)=O)[C@@H]1OC(C)=O	SRB	10 µM, 48 h	relative to: untreated	growth	59.5%
O=C(O)CCNC(=O)[C@H](Cc1c[nH]cn1)NC(=O)[C@H](Cc1c[nH]cn1)NC(=O)CCNC(=O)[C@@H]1CCCN1	LDH release	10 µg/mL, 6 h, 1% FBS		viability	83.4%
COc1cc(CNC(=O)C[C@H](C)CCC=C(C)C)ccc1OCc1cn(-c2cccc([N+](=O)[O-])c2)nn1	SRB	10 µM, 48 h		growth percent	100%
O=C(Cc1cccc(C(F)(F)F)c1)Nc1cc(Oc2cc(CO)c3nc(NC(=O)C4CC4)sc3c2)ccc1F	necroptosis, CellTiter-Glo	with: TNF, SMAC mimetic and zVAD (TSZ)		EC50	> 10 µM
CC/C=C\C/C=C\C/C=C\C/C=C\C/C=C\C/C=C\CCC(=O)Nc1ccn(C2OC(CO)C(O)C2(F)F)c(=O)n1 (stereo not shown)	cell growth or viability, SRB			GI50	0.0683 µM
COc1cc(CNC(=O)C[C@H](C)CCC=C(C)C)ccc1OCc1cn(-c2cccc(C(F)(F)F)c2)nn1	SRB	10 µM, 48 h		growth percent	96.6%
CCN1CCN(Cc2ccc(Nc3ncc4c(n3)N(C)c3ccccc3C(=O)N4C)cc2C(F)(F)F)CC1	cell growth or viability, ATP luminescence	96 h		EC50	0.951 µM
O=C(/C=C(O)/C=C/c1cccs1)/C=C/c1cccs1	DCFH-DA, SRB-normalized	10 µM	relative to: untreated cells	intracellular ROS	135 ± 10.4%
O=C(Cc1cccc(C(F)(F)F)c1)Nc1cc(Oc2ccc3nc(NC(=O)C4CC4)sc3c2C(=O)NC2CC2)ccc1F	necroptosis, CellTiter-Glo	with: TNF, SMAC mimetic and zVAD (TSZ)		EC50	1.04 ± 0.184 µM
CO[C@@H]1[C@@H](O[C@@H]2O[C@H](C)[C@@H](O[C@H]3C[C@@](C)(O)[C@@H](OC(=O)Nc4ccc(C)cc4)[C@H](C)O3)[C@H](N(C)C)[C@H]2O)[C@@H](CC=O)C[C@@H](C)[C@@H](O[C@H]2CC[C@H](N(C)C)[C@@H](C)O2)/C=C/C=C/C[C@@H](C)OC(=O)C[C@H]1O	cell growth or viability, CCK-8	72 h		IC50	3.27 µM
Cc1cc2nc(NC(=O)C3CC3)sc2c(C)c1Oc1ccc(F)c(NC(=O)Cc2cccc(C(F)(F)F)c2)c1	necroptosis, CellTiter-Glo	with: TNF, SMAC mimetic and zVAD (TSZ)		EC50	0.145 ± 0.01 µM
O=C1CCNC(=O)[C@H](Cc2c[nH]cn2)NC(=O)[C@@H]2CCCN2C(=O)[C@H](Cc2c[nH]cn2)NC(=O)CCN1	MTT	10 µg/mL, 6 h		viability	21.3%
O=C(Cc1cccc(C(F)(F)F)c1)Nc1cc(Oc2c(F)cc3nc(NC(=O)C4CC4)sc3c2F)ccc1F	necroptosis, CellTiter-Glo	with: TNF, SMAC mimetic and zVAD (TSZ)		EC50	0.009 ± 0.002 µM
COc1cc2ncc3c(c2cc1-c1cn(C)nc1C)n(-c1c(F)cncc1OC)c(=O)n3C	ATR-CHK1 signaling	up to 30 µM, with: hydroxyurea		CHK1 phosphorylation	no effect

A few entries again:
Structure (SMILES)	test	setting	how to read	quantity	value
O=C(/C=C(O)/C=C/c1cccs1)/C=C/c1cccs1	DCFH-DA, SRB-normalized	10 µM	relative to: untreated cells	intracellular ROS	135 ± 10.4%
O=C(Cc1cccc(C(F)(F)F)c1)Nc1cc(Oc2ccc3nc(NC(=O)C4CC4)sc3c2C(=O)NC2CC2)ccc1F	necroptosis, CellTiter-Glo	with: TNF, SMAC mimetic and zVAD (TSZ)		EC50	1.04 ± 0.184 µM
CO[C@@H]1[C@@H](O[C@@H]2O[C@H](C)[C@@H](O[C@H]3C[C@@](C)(O)[C@@H](OC(=O)Nc4ccc(C)cc4)[C@H](C)O3)[C@H](N(C)C)[C@H]2O)[C@@H](CC=O)C[C@@H](C)[C@@H](O[C@H]2CC[C@H](N(C)C)[C@@H](C)O2)/C=C/C=C/C[C@@H](C)OC(=O)C[C@H]1O	cell growth or viability, CCK-8	72 h		IC50	3.27 µM
